Experimental data of several laboratories.
Every numbered part comes from another study and shows a few of its results, in no order.
Chain of UniProt Q9BX84 (whole entry, looked up): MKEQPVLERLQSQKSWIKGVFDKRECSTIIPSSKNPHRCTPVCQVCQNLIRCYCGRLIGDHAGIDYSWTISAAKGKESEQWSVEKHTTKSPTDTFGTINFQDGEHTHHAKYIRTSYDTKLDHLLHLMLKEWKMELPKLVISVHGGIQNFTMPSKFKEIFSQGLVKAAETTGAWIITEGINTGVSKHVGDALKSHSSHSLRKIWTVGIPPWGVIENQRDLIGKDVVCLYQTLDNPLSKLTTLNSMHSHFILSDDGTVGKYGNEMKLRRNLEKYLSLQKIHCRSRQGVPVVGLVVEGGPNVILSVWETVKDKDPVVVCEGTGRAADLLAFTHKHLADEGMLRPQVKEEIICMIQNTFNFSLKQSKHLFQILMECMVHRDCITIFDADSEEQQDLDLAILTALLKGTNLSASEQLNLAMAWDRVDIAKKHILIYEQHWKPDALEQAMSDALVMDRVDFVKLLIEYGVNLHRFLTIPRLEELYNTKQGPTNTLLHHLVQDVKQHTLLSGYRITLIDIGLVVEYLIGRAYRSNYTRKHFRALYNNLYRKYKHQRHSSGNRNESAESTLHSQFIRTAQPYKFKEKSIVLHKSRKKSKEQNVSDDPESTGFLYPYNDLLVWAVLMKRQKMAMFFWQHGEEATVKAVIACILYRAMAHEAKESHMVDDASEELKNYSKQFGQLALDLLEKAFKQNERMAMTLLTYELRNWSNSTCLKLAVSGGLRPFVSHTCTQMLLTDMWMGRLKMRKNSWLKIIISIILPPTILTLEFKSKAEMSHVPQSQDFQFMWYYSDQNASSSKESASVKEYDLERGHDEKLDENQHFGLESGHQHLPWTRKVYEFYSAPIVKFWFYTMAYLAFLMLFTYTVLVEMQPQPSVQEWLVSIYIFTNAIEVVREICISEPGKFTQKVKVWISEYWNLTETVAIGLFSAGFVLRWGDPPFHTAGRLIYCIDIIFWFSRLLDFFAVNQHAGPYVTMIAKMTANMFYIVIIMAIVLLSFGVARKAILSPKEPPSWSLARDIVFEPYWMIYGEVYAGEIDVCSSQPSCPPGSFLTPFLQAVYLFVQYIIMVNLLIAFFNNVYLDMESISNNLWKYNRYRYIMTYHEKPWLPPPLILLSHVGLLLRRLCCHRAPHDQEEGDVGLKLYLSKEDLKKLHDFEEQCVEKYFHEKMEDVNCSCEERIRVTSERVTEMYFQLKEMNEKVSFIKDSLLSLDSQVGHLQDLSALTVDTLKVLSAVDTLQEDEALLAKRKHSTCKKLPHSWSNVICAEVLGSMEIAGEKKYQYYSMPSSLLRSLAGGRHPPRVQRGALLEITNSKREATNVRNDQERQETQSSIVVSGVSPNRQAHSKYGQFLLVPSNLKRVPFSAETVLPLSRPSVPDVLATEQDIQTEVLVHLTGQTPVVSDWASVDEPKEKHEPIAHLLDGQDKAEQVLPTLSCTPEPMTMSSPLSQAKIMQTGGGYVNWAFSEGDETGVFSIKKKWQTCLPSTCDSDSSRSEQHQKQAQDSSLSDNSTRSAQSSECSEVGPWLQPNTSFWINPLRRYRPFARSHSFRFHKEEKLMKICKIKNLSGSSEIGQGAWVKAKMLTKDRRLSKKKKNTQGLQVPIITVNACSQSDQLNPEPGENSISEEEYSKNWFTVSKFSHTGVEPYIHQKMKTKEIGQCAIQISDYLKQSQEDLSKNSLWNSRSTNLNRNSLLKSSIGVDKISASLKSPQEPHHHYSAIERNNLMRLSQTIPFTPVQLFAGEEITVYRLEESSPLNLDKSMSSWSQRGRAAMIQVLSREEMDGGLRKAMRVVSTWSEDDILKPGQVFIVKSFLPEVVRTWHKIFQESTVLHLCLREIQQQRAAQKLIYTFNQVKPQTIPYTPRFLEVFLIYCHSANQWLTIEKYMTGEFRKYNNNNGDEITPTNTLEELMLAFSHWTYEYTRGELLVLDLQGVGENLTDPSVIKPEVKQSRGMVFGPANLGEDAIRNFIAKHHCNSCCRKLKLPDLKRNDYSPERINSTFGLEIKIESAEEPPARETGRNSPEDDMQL
Chain of UniProt Q8IYT8 (whole entry, looked up): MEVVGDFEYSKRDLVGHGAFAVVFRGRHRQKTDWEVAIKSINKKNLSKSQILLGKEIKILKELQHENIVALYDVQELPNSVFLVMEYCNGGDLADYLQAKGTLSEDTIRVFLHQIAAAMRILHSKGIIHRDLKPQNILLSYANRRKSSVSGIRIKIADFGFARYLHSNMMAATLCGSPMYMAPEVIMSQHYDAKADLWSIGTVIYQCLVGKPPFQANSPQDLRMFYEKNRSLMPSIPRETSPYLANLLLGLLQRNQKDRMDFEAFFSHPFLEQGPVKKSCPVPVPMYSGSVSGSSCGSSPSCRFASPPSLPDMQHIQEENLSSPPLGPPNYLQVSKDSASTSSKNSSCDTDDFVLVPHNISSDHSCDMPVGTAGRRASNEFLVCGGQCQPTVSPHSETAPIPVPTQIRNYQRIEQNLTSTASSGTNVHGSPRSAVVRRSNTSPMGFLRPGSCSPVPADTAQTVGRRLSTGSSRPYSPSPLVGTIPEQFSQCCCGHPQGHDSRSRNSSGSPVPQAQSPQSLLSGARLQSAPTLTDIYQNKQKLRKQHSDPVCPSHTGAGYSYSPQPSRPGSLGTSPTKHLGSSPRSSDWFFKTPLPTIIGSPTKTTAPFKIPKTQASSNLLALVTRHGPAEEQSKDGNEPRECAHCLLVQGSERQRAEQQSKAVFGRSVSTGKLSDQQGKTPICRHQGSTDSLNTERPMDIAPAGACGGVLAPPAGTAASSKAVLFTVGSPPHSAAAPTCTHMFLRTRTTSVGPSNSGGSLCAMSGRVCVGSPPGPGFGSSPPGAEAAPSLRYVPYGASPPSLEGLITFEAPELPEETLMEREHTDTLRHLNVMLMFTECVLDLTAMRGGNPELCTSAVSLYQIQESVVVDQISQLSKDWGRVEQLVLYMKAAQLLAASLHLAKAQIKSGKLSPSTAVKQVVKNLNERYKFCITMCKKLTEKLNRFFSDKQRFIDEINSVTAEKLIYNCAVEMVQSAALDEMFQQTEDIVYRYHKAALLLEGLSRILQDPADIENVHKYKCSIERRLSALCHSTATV
Chain of UniProt O15146 (whole entry, looked up): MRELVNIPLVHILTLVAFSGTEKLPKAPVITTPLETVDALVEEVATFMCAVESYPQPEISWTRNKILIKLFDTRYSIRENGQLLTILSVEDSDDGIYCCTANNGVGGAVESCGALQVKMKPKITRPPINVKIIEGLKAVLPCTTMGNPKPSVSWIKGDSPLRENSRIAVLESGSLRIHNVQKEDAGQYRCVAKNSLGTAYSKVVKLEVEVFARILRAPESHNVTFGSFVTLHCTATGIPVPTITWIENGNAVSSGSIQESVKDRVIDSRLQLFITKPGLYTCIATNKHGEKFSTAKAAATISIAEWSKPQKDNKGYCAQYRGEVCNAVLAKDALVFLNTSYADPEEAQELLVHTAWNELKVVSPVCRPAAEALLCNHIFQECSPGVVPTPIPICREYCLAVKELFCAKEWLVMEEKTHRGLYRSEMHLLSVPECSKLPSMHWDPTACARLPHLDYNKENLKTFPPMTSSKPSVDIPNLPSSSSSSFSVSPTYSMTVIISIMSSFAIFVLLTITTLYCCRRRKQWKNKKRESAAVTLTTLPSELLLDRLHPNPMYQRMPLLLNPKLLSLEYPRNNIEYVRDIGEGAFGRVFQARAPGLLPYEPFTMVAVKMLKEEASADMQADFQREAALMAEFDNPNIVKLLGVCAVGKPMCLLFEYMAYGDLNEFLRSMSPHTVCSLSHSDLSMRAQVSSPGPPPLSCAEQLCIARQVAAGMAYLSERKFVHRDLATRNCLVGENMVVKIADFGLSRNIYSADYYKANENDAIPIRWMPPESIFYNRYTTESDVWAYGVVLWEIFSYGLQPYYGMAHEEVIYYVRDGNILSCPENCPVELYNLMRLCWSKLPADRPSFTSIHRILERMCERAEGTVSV
Chain of UniProt Q8NE63 (whole entry, looked up): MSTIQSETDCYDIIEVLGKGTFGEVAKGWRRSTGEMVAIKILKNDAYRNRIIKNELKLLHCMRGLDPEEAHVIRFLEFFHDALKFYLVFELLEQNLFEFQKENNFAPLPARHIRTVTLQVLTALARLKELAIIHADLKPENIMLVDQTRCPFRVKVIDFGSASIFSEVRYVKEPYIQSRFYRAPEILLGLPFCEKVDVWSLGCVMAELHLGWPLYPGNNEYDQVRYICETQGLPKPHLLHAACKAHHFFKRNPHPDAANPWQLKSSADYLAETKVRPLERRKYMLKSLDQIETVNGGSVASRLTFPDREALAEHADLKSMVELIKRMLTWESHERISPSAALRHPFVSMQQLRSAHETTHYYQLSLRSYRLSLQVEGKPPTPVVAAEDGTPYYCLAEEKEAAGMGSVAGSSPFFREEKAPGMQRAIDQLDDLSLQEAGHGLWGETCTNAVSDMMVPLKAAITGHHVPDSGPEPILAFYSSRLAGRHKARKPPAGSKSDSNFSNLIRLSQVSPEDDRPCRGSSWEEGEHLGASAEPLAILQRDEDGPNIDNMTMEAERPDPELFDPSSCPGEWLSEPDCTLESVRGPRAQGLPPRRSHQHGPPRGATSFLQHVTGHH
Chain of UniProt P37023 (whole entry, looked up): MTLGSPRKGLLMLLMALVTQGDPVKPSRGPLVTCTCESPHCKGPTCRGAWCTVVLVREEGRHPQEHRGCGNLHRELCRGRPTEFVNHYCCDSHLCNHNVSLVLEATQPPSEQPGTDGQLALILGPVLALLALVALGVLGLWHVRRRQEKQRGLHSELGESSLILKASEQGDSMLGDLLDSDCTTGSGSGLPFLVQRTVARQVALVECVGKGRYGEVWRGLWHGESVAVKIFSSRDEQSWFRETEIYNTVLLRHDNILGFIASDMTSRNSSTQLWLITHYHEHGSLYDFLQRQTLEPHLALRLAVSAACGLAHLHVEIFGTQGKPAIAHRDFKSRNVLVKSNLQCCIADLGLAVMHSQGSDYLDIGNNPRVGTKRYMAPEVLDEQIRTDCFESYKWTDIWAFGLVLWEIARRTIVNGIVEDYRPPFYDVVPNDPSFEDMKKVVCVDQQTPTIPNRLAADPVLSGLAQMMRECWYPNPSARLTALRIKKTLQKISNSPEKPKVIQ

Set 1
Cell line: A-375
Concentration: 100 µM
Time: 36 h
SMILES | viability
Nc1nc(Cl)nc2c1ncn2[C@@H]1O[C@H](CO)[C@@H](O)[C@@H]1F | 21.3%
OCCc1ccccc1 | 130%
N#Cc1cc(-c2n[nH]c(-c3ccncc3)n2)ccn1 | 85.5%
CN1CCC(=C2c3ccccc3CCn3c(C=O)cnc32)CC1 | 74.4%
Nc1nc(N)c2nc(-c3ccccc3)c(N)nc2n1 | 14.6%
O=c1ccc2cc3ccoc3cc2o1 | 87.3%
NC(=O)N1c2ccccc2CCc2ccccc21 | 81.1%
O=C(O)c1ccc(O)c(O)c1 | 114%
COc1ccc(C(C)=O)c(O)c1 | 94.5%
COc1ccc(OC)c(C(O)CNC(=O)CN)c1 (stereo not shown) | 121%
O=c1[nH]c(=O)n([C@H]2C[C@H](O)[C@@H](CO)O2)cc1F | 21.4%
CC(=O)O[C@H]1C[C@@]2(C)[C@@H](C[C@@H](O)[C@H]3[C@@]4(C)CC[C@@H](O)[C@@H](C)[C@@H]4CC[C@@]32C)/C1=C(\CCC=C(C)C)C(=O)O | 90.6%
O=C(O)c1ccc(-n2nc(-c3ccccc3O)nc2-c2ccccc2O)cc1 | 40%
CCCCS(=O)(=O)N[C@@H](Cc1ccc(OCCCCC2CCNCC2)cc1)C(=O)O | 109%
O=C(O)CCCN1CCC(O[C@@H](c2ccc(Cl)cc2)c2ccccn2)CC1 | 103%
CC(C)(S)C(N)C(=O)O (racemic) | 120%
O[C@H](CNC[C@@H](O)[C@H]1CCc2cc(F)ccc2O1)[C@@H]1CCc2cc(F)ccc2O1 | -2.69%
CC(C)=CCC[C@](C)(O[C@@H]1O[C@H](CO[C@@H]2O[C@@H](CO)[C@H](O)[C@H]2O)[C@@H](O)[C@H](O)[C@H]1O)[C@H]1CC[C@]2(C)[C@@H]1[C@H](O)C[C@@H]1[C@@]3(C)CC[C@H](O[C@@H]4O[C@H](CO)[C@@H](O)[C@H](O)[C@H]4O[C@@H]4O[C@H](CO)[C@@H](O)[C@H](O)[C@H]4O)C(C)(C)[C@@H]3CC[C@]12C | 89.7%
CCNC(=O)[C@@H]1CCCN1C(=O)[C@H](CCCNC(=N)N)NC(=O)[C@H](CC(C)C)NC(=O)[C@@H](C)NC(=O)[C@H](Cc1ccc(O)cc1)NC(=O)[C@H](CO)NC(=O)[C@H](Cc1c[nH]c2ccccc12)NC(=O)[C@H](Cc1c[nH]cn1)NC(=O)[C@@H]1CCC(=O)N1 | 92.5%
Nc1ccc(S(=O)(=O)Nc2ccccn2)cc1 | 97.5%
O=C(Oc1ccccc1C(=O)O)c1ccccc1O | 116%

Set 2
Structure (SMILES): O=C(O)c1cc(-c2ccc(C3CCNCC3)cc2)c2ccc(-c3ccc(C(F)(F)F)cc3)cc2c1
Read-out: cell-free assay
Technique: competition with immobilised ligand
Concentration: 1 µM
target | remaining binding
PRKAA1 (Homo sapiens, UniProt Q13131) | 100%
NTRK3 (Homo sapiens, UniProt Q16288) | 100%
FGFR3 (Homo sapiens, UniProt P22607) | 100%
HIPK4 (Homo sapiens, UniProt Q8NE63) | 100%
PIP4K2C (Homo sapiens, UniProt Q8TBX8) | 100%
CHEK2 (Homo sapiens, UniProt O96017) | 100%
CDK18 (Homo sapiens, UniProt Q07002) | 100%
CAMK1G (Homo sapiens, UniProt Q96NX5) | 100%
STK17A (Homo sapiens, UniProt Q9UEE5) | 100%
CDKL3 (Homo sapiens, UniProt Q8IVW4) | 94%
FRK (Homo sapiens, UniProt P42685) | 100%
MUSK (Homo sapiens, UniProt O15146) | 90%
BRSK2 (Homo sapiens, UniProt Q8IWQ3) | 100%
TRPM6 (Homo sapiens, UniProt Q9BX84) | 100%
DCLK1 (Homo sapiens, UniProt O15075) | 84%
Insulin receptor (INSR, Homo sapiens, UniProt P06213) | 100%
CAMK2G (Homo sapiens, UniProt Q13555) | 100%
PIK3CA (Homo sapiens, UniProt P42336, I800L) | 93%
PIK3C2G (Homo sapiens, UniProt O75747) | 100%
TESK1 (Homo sapiens, UniProt Q15569) | 100%
ULK2 (Homo sapiens, UniProt Q8IYT8) | 100%
CAMK1D (Homo sapiens, UniProt Q8IU85) | 100%
MYLK3 (Homo sapiens, UniProt Q32MK0) | 100%
PDGFRA (Homo sapiens, UniProt P16234) | 100%
NEK2 (Homo sapiens, UniProt P51955) | 100%

Set 3
Target: Dual specificity tyrosine-phosphorylation-regulated kinase 1A (DYRK1A, Homo sapiens, UniProt Q13627)
Read-out: enzyme activity
Action: inhibitor
Concentration: 0.5 µM
Reference: control
SMILES | remaining activity
CNc1cc2c(Nc3cccc(Br)c3)ncnc2cn1 | 95.6%
Nc1nc(Nc2ccc(S(N)(=O)=O)cc2)nn1C(=S)Nc1c(F)cccc1F | 15.3%
NC(=O)c1ccc(-c2nc(-c3ccc4c(c3)OCCO4)c(-c3ccccn3)[nH]2)cc1 | 109%
COc1cc2c(Nc3ccc(Br)cc3F)ncnc2cc1OCC1CCN(C)CC1 | 106%
CC(C)n1cnc2c(Nc3cccc(Cl)c3)nc(NCCO)nc21 | 88.6%
NC(=O)c1cccc(-c2cc(Nc3ccc(OC(F)(F)F)cc3)ncn2)c1 | 101%
CCCCc1c(-c2ccc(O)cc2)[nH]c2nccnc12 | 92.9%
N#CC(c1ccnc(NCCc2cccnc2)n1)c1nc2ccccc2s1 (stereo not shown) | 52.7%
N#C/C(=C(/N)SC1C=CC=CC1)c1cccc(C(O)c2ccncc2)c1 (stereo not shown) | 93.8%
c1cc(-c2cnn3cc(-c4ccc(OCCN5CCCCC5)cc4)cnc23)ccn1 | 20.7%
CC(C)N(CCC(=O)c1ccc2ccccc2c1)Cc1ccccc1 | 105%
O=C1c2ccccc2-c2nc3nnnn3nc21 | 95%
CCN(CC)CCCCN1c2ccccc2Oc2ccc(Cl)cc21 | 104%
O=C(O)/C=C/c1cc(Br)c(Br)c(Br)c1Br | 74.8%
O=C(c1ccccc1)c1ccc(N2CCOCC2)cc1O | 101%
Clc1ccc(Nc2nnc(Cc3ccncc3)c3ccccc23)cc1 | 102%
COc1cc2c(N3CCN(C(=O)Nc4ccc(OC(C)C)cc4)CC3)ncnc2cc1OCCCN1CCCCC1 | 104%
O=Nc1c(-c2c(O)[nH]c3ccccc23)[nH]c2ccccc12 | 105%
O=c1c(-c2ccc(F)cc2)c(-c2ccncc2)[nH]n1-c1ccc(Cl)cc1 | 89.8%
O=C1NC(=O)/C(=C/c2ccc3c(c2)OC(F)(F)O3)S1 | 84.6%
CC(C)(C)c1nc2c3cc[nH]c(=O)c3c3cc(F)ccc3c2[nH]1 | 102%
C[C@@H](N)[C@H]1CC[C@H](C(=O)Nc2ccncc2)CC1 | 101%
FC(F)(F)c1ccc(/C=C/c2nc(COc3ccc(CCCCn4ccnn4)cc3)co2)cc1 | 105%

Set 4
Compound: Cc1ccc(NC(=O)c2ccnc(C(F)(F)F)c2)cc1-c1cc(OCCO)nc(N2CCOCC2)c1
Read-out: binding
Concentration: 1 µM
target | test | remaining binding
PIP4K2B (Homo sapiens, UniProt P78356) |  | 100%
CASK (Homo sapiens, UniProt O14936) |  | 77%
PIK3C2B (Homo sapiens, UniProt O00750) |  | 100%
STK24 (Homo sapiens, UniProt Q9Y6E0) |  | 100%
NTRK1 (Homo sapiens, UniProt P04629) | competition with immobilised ligand | 94%
BUB1 (Homo sapiens, UniProt O43683) |  | 100%
CDKL5 (Homo sapiens, UniProt O76039) |  | 100%
WEE2 (Homo sapiens, UniProt P0C1S8) | competition with immobilised ligand | 100%
BMPR1B (Homo sapiens, UniProt O00238) | competition with immobilised ligand | 100%
TAOK1 (Homo sapiens, UniProt Q7L7X3) | competition with immobilised ligand | 95%
ACVRL1 (Homo sapiens, UniProt P37023) | competition with immobilised ligand | 100%
FLT3 (Homo sapiens, UniProt P36888, D835Y) |  | 100%
MAP4K2 (Homo sapiens, UniProt Q12851) | competition with immobilised ligand | 100%
MAPKAPK2 (Homo sapiens, UniProt P49137) |  | 100%
MAP4K4 (Homo sapiens, UniProt O95819) | competition with immobilised ligand | 88%
PTK6 (Homo sapiens, UniProt Q13882) | competition with immobilised ligand | 99%

For quick reference, copied from above (set 2):
target | remaining binding
BRSK2 (Homo sapiens, UniProt Q8IWQ3) | 100%
TRPM6 (Homo sapiens, UniProt Q9BX84) | 100%
DCLK1 (Homo sapiens, UniProt O15075) | 84%
Insulin receptor (INSR, Homo sapiens, UniProt P06213) | 100%
CAMK2G (Homo sapiens, UniProt Q13555) | 100%
